Assay results from different studies.
Every numbered part comes from another study and shows a few of its results, in no order.
UniProt P35462, sequence (whole entry, looked up): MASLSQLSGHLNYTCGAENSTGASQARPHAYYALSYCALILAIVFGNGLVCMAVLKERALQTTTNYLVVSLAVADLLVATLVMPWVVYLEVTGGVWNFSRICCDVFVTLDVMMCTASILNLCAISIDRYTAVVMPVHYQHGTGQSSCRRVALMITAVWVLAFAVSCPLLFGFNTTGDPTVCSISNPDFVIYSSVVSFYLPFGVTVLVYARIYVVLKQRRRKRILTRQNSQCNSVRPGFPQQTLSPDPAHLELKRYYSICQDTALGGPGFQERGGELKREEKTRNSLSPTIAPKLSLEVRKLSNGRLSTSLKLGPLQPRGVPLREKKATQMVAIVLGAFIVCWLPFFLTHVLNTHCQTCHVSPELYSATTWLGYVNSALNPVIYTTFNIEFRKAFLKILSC
UniProt Q04759, sequence (whole entry, looked up): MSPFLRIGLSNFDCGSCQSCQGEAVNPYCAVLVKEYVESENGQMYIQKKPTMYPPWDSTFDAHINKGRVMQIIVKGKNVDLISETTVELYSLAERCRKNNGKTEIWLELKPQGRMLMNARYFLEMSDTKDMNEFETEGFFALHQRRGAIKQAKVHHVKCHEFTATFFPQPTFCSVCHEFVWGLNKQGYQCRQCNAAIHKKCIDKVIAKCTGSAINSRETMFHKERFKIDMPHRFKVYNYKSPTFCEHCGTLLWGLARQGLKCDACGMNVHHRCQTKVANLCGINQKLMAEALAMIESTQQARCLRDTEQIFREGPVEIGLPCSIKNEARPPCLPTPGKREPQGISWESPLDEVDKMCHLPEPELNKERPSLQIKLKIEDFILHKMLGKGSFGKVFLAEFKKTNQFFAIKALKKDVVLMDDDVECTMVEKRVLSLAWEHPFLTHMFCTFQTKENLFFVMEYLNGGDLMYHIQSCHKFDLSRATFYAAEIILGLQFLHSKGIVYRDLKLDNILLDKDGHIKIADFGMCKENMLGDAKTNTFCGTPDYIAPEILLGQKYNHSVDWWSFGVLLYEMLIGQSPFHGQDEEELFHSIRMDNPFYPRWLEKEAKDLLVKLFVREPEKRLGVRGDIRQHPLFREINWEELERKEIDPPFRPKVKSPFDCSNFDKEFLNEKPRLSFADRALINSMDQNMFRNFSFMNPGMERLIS
UniProt P05979, sequence (whole entry, looked up): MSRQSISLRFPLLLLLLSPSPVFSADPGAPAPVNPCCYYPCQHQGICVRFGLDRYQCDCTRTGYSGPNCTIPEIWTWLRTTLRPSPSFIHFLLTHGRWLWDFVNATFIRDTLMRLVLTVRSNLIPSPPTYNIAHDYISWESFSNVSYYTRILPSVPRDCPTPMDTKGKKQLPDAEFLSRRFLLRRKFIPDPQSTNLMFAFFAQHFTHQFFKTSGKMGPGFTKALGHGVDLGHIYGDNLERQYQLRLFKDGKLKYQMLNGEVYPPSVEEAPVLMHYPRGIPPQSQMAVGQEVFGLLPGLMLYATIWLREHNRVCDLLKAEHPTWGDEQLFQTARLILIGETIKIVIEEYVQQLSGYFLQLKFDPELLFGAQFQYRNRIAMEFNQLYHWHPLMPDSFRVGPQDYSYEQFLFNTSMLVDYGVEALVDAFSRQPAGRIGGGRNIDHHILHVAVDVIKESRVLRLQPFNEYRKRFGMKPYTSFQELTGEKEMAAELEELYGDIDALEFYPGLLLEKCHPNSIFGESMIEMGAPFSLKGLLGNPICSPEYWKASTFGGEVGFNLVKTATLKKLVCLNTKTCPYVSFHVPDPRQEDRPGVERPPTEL
UniProt Q16513, sequence (whole entry, looked up): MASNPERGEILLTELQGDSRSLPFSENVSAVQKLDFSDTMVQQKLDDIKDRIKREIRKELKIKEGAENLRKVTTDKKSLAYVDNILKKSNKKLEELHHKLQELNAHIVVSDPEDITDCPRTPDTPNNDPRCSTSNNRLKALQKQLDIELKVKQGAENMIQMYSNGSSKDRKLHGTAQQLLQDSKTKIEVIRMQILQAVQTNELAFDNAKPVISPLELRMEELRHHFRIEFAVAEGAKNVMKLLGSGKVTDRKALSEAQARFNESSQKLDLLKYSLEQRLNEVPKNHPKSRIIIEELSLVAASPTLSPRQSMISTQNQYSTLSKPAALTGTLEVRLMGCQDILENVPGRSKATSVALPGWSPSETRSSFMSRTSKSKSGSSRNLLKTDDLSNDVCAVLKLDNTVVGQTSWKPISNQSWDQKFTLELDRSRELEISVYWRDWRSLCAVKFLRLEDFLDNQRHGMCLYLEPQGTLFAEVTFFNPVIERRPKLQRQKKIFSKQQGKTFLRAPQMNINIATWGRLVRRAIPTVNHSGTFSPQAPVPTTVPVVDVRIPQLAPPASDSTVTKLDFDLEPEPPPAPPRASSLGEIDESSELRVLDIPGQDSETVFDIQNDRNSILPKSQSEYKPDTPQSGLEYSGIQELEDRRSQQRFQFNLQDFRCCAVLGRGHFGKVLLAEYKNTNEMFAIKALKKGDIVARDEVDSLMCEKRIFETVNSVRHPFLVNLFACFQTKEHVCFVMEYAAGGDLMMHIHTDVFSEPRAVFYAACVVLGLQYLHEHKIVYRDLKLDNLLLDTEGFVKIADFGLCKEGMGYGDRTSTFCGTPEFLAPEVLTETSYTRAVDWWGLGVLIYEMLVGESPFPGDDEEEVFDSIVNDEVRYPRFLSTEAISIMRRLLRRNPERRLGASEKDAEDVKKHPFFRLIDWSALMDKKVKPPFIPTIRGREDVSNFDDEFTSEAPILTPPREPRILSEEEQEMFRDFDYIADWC
UniProt P10721, sequence (whole entry, looked up): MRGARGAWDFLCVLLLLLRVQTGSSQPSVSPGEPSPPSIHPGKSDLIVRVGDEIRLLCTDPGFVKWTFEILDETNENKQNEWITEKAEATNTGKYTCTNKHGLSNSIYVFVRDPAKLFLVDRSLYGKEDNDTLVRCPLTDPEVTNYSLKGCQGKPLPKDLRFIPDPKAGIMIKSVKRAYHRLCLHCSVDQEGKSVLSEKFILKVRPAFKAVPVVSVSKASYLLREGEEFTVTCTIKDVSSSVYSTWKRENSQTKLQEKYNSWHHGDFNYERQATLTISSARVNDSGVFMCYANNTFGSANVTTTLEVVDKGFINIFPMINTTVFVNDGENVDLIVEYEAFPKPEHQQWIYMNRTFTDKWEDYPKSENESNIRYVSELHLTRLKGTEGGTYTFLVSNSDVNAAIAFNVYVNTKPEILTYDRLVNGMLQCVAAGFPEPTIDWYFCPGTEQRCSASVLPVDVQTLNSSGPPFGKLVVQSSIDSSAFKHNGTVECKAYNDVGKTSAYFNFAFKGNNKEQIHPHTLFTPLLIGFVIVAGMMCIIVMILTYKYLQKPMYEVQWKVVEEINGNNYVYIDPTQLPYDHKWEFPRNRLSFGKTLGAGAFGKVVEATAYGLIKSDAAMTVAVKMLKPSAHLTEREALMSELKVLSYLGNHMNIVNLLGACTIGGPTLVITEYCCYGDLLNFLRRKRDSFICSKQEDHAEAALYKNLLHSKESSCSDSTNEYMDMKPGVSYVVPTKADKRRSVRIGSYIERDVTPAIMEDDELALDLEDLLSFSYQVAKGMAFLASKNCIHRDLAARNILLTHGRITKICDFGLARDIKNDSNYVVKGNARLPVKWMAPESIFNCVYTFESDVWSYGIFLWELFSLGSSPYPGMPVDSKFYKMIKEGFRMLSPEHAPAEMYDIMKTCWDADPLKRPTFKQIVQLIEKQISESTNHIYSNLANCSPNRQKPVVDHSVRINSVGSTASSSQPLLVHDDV

Study 1
SMILES: COC(=O)c1cc(N(C)C(=O)c2ccn3ncc(-c4ccc(C(=O)O)cc4)c3c2)ccc1Cl
target	effect on	mode	IC50
PRKCQ (Homo sapiens, UniProt Q04759)	enzyme activity	inhibitor	> 30 µM
PRKAA2 (Homo sapiens, UniProt P54646)	enzyme activity	inhibitor	4.7 µM
Insulin receptor (INSR, Homo sapiens, UniProt P06213)	enzyme activity	inhibitor	> 30 µM
DRD3 (Homo sapiens, UniProt P35462)	cell-free assay		> 30 µM
SLC6A2 (Homo sapiens, UniProt P23975)	cell-free assay		> 30 µM
KIT (Homo sapiens, UniProt P10721)	enzyme activity	inhibitor	> 30 µM
PKN2 (Homo sapiens, UniProt Q16513)	enzyme activity	inhibitor	> 30 µM
Prothrombin (F2, Homo sapiens, UniProt P00734)	cell-free assay		> 30 µM
Tribbles homolog 2 (TRIB2, Homo sapiens, UniProt Q92519)	enzyme activity	inhibitor	4.61 µM
RPS6KB1 (Homo sapiens, UniProt P23443)	enzyme activity	inhibitor	> 30 µM
PTGS1 (Ovis aries, UniProt P05979)	cell-free assay		> 30 µM
ZAP70 (Homo sapiens, UniProt P43403)	enzyme activity	inhibitor	> 30 µM
ADRA2A (Homo sapiens, UniProt P08913)	cell-free assay		> 30 µM
MKNK2 (Homo sapiens, UniProt Q9HBH9)	enzyme activity	inhibitor	3.43 µM
SYK (Homo sapiens, UniProt P43405)	enzyme activity	inhibitor	> 30 µM
PDE4D (Homo sapiens, UniProt Q08499)	cell-free assay	inhibitor	12.2 µM
PRKCA (Homo sapiens, UniProt P17252)	enzyme activity	inhibitor	> 30 µM

Study 2
Cell line: mouse MPNST tumor cells
Method: high-content immunofluorescence imaging
Item: nuclear SOX9
Concentration: 10 µM
Time: 12 h
Notes: mean of 2 replicates
Reference: DMSO control
Direction: higher = more nuclear SOX9
SMILES	nuclear SOX9 intensity
CN(C)[C@@H]1C(=O)C(C(N)=O)=C(O)[C@@]2(O)C(=O)C3=C(O)c4c(O)cccc4[C@@](C)(O)[C@H]3C[C@@H]12	96.6 % of DMSO
CC(=O)NCCc1c[nH]c2ccccc12	98.8 % of DMSO
CC(=O)OCC1=C(C(=O)O)N2C(=O)C(N)C2SC1 (stereo not drawn)	99.3 % of DMSO
CNCC(O)c1ccc(O)cc1 (racemic)	97.4 % of DMSO
CC[N+]1(C)CCCC(OC(=O)C(O)(c2ccccc2)c2ccccc2)C1 (stereo not drawn)	101 % of DMSO
c1ccc(CCCCN2CCC(c3ccccc3)CC2)cc1	167 % of DMSO
C[C@]12CC[C@H](O)C[C@H]1CC[C@@H]1[C@@H]2CC[C@]2(C)[C@@](O)(c3ccoc3)CC[C@]12O	93.1 % of DMSO
COC(=O)C=CC(=O)NC1CCC2(O)C3Cc4ccc(O)c5c4C2(CCN3CC2CC2)C1O5 (stereo not drawn)	125 % of DMSO
C#C[C@]1(O)CC[C@H]2[C@@H]3CCC4=CC(=O)CC[C@]4(C)[C@H]3CC[C@@]21C	91.5 % of DMSO

Study 3
Target: Calcium/calmodulin-dependent protein kinase type II subunit alpha (CAMK2A, Homo sapiens, UniProt Q9UQM7)
UniProt Q9UQM7, sequence (whole entry, looked up): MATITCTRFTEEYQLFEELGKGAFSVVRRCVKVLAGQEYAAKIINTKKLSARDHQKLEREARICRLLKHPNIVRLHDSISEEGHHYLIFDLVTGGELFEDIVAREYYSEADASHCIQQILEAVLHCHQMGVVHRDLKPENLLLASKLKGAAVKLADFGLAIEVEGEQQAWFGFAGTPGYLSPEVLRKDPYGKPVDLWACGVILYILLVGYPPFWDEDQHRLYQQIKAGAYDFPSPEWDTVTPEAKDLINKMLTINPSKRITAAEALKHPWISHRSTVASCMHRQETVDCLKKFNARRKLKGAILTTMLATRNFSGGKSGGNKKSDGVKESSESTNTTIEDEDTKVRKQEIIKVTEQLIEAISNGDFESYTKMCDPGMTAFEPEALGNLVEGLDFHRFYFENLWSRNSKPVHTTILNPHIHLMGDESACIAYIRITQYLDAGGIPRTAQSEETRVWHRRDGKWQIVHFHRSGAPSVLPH
Effect on: enzyme activity
Mode: inhibitor
Concentration: 10 µM
Compound	inhibition [%]
C[C@H]1CC[C@@H]2N(C1)C[C@H]1[C@@H]3C[C@H]4[C@@H](CC(=O)[C@H]5C[C@H](O)CC[C@@]54C)[C@@H]3CC[C@H]1[C@]2(C)O	-13
C[C@H]1C(=O)O[C@@H]2CCN3CC=C(COC(=O)[C@](C)(O)[C@]1(C)O)[C@H]23	-4
COc1ccccc1OC	-32
COc1cc2c(cc1O)-c1c(OC)c(O)cc3c1[C@H](C2)NCC3	-24
CC1=C2C(=CO[C@H](C)[C@H]2C)C(O)=C(C(=O)O)C1=O	-69
C=C[C@]12CN(C)[C@@H]3[C@H]4CO[C@H](C[C@H]41)[C@]1(C(=O)Nc4ccccc41)[C@@H]32	1
COc1ccc(C(CN(C)C)C2(O)CCCCC2)cc1 (stereo not drawn)	-12
O=c1ccc2cc(O[C@@H]3O[C@H](CO)[C@@H](O)[C@H](O)[C@H]3O)c(O)cc2o1	-8
CC[C@@H](C)[C@@H]1NC(=O)[C@@H]2CCCN2C(=O)[C@H](Cc2ccccc2)N(C)C(=O)[C@H](Cc2ccccc2)NC(=O)[C@H](C(C)C)N(C)C(=O)[C@@H]([C@H](C)CC)OC(=O)[C@H](C(C)(C)O)N(C)C(=O)[C@H](CC(C)C)NC(=O)[C@H](C(C)C)N(C)C1=O	-34
CC(=O)[C@@]1(O)CC[C@H]2[C@@H]3CC=C4C[C@@H](O)CC[C@]4(C)[C@H]3CC[C@@]21C	5

Study 4
Species: mouse
Sample: microsomes or S9
Concentration: 2 µM
Time: 0.5 h
Compound	remaining compound
Cc1ccc(C2NCc3ccccc3-n3cccc32)c(C)c1 (stereo not drawn)	8.28%
CC(C)(CO)CCCNC(=O)N1CCC2(CC1)OCCO2	75.7%
COc1cc(=O)n(-c2ccc(C#N)c(Cl)c2C)nc1C	0%

Some of these lines once more (study 1):
target	effect on	mode	IC50
ADRA2A (Homo sapiens, UniProt P08913)	cell-free assay		> 30 µM
MKNK2 (Homo sapiens, UniProt Q9HBH9)	enzyme activity	inhibitor	3.43 µM
